Assay results pooled from the literature.

SMILES	tested on	assay	test system	setting	how to read	quantity	result
CN(C)C(=O)c1cc2cnc(Nc3ccc(N4CCNCC4)cn3)nc2n1C1CCCC1		measured: QT interval prolongation	human, HR+/HER2− advanced breast cancer	oral, dose not given, grade 3, CTCAE v4.03		patients with adverse event	1.8%
Cn1cc(CN2CCCC(COc3ccccc3C(=O)N3CCCCC3)C2)c2ccccc21 (stereo not drawn)	Vero-E6	CellTiter-Glo ATP		concentration not given, 72 h, retest 8-point duplicates	reference: DMSO 0%, hyamine -100%, more negative, more toxic	cytotoxicity efficacy	0%
O=C1Nc2cc3[nH]nc(-c4ccncc4)c3cc2CN1Cc1ccccc1		CTCAE v4.03	human, relapsed or refractory advanced solid tumours	intravenous, 7.2 mg/kg, pooled schedules		patients with subretinal fluid	40%
COc1ncnn2ccc(-c3cnc4nc(C)n(Cc5nnc([C@@H](C)F)o5)c4c3)c12			human	oral, dose not given, grade 5		patients with diarrhea	0%
COc1ccc(-c2c(-c3ccc(C#N)c(F)c3)nc(N3CCC(N)CC3)n(C)c2=O)cc1F		measured: weight decreased	human patients	oral, 60 mg, dose expansion		patients with serious TEAE	0%
CC1CCN(CCCNC(=O)c2cc(Sc3ccc(F)cc3)nc3ccccc23)CC1	Vero-E6	CellTiter-Glo ATP		concentration not given, 72 h, retest 8-point duplicates	reference: DMSO 0%, hyamine -100%, more negative, more toxic	cytotoxicity efficacy	0%
Cc1cn([C@H]2O[C@@H](CO[P@@](=O)(N[C@@H](C)C(=O)OC(C)C)Oc3ccccc3)[C@H](O)[C@H]2F)c(=O)[nH]c1=O		measured: Flu	human	50 mg		patients with TEAE	17%
C=CC(=O)Nc1cc(Nc2nccc(Nc3cc(Cl)c(F)cc3C(C)(C)O)n2)c(OC)cc1N1CC[C@@H](N(C)C)C1			human patients	oral, 50 mg, treatment-emergent adverse events		patients with amylase increased	0%
C[C@]1(O)C[C@@](N)(c2ccc(-c3nc4n(c3-c3ccccc3)COc3ccncc3-4)cc2)C1			human, advanced or metastatic solid tumours	16 mg once daily, phase I dose escalation		patients with Pruritus TEAE	0%
N[C@@H]1c2ccccc2OC12CCN(c1cnc3c(N4CCCc5ncccc54)n[nH]c3n1)CC2		measured: Thrombocytopenia	human advanced or metastatic solid tumours	oral, 60 mg once daily, phase Ia pooled cohort		patients with treatment-related adverse event	20%
Cn1cncc1-c1c(F)cncc1NC(=O)c1c(N)nn2cc(F)cnc12			human patients	oral, 220 mg once daily, 2 weeks on 1 week off		patients grade ≥3 Neutrophil count decrease	0%
C[C@@H]1OC(=O)NN=C1c1ccc(-c2ccc(F)cc2)c(C(F)(F)F)c1		phase I trial, measured: abdominal distension worst grade 1	human patients	20 mg loading then 1 mg daily		patients with adverse event	50%

Excerpt of the above:
SMILES	tested on	assay	test system	setting	how to read	quantity	result
Cn1cc(CN2CCCC(COc3ccccc3C(=O)N3CCCCC3)C2)c2ccccc21 (stereo not drawn)	Vero-E6	CellTiter-Glo ATP		concentration not given, 72 h, retest 8-point duplicates	reference: DMSO 0%, hyamine -100%, more negative, more toxic	cytotoxicity efficacy	0%
